{"data": "Assay results from different studies", "Bifunctional dihydrofolate reductase-thymidylate synthase": "Bifunctional dihydrofolate reductase-thymidylate synthase (Leishmania major, UniProt P07382)", "note": "Lines come from different studies, so protocols differ. ± gives the spread as reported.", "sequence of UniProt P07382 (whole entry, looked up)": "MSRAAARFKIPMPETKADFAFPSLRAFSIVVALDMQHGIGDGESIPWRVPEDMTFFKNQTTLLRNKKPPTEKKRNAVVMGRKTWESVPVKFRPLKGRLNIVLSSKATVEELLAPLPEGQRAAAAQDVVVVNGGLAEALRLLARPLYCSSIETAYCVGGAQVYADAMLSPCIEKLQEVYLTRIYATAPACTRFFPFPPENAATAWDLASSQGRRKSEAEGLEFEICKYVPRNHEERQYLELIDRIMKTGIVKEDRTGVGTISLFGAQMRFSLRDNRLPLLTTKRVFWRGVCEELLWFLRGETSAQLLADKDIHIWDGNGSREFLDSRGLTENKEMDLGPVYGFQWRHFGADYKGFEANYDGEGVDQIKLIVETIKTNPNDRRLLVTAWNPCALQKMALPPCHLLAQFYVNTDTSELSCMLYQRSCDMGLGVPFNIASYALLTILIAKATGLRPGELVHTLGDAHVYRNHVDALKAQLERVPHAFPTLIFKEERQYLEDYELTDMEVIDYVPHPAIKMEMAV", "sequence of UniProt P50391 (whole entry, looked up)": "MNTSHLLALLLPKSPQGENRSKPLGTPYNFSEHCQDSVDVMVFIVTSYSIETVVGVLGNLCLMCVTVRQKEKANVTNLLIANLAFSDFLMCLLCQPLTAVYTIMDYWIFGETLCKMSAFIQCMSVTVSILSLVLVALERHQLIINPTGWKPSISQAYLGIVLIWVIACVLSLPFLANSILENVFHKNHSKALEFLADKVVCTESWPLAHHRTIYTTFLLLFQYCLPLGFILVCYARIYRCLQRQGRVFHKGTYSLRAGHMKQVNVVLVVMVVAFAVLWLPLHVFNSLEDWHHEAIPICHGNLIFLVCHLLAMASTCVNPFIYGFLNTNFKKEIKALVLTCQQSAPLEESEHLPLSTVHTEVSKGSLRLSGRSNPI", "sequence of UniProt P41595 (whole entry, looked up)": "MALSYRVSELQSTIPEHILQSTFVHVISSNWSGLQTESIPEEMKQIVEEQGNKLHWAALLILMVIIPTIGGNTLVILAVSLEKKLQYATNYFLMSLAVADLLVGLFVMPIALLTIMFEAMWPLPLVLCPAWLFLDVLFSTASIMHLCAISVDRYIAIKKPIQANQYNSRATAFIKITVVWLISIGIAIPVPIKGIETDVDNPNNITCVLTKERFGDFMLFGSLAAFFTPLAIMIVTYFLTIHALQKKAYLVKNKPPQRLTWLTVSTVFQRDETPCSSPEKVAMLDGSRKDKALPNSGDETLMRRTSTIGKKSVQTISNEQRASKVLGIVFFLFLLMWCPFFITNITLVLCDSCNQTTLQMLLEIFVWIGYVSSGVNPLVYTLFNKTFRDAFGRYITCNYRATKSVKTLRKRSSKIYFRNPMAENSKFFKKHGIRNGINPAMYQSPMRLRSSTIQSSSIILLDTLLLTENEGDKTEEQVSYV", "sequence of UniProt P29320 (whole entry, looked up)": "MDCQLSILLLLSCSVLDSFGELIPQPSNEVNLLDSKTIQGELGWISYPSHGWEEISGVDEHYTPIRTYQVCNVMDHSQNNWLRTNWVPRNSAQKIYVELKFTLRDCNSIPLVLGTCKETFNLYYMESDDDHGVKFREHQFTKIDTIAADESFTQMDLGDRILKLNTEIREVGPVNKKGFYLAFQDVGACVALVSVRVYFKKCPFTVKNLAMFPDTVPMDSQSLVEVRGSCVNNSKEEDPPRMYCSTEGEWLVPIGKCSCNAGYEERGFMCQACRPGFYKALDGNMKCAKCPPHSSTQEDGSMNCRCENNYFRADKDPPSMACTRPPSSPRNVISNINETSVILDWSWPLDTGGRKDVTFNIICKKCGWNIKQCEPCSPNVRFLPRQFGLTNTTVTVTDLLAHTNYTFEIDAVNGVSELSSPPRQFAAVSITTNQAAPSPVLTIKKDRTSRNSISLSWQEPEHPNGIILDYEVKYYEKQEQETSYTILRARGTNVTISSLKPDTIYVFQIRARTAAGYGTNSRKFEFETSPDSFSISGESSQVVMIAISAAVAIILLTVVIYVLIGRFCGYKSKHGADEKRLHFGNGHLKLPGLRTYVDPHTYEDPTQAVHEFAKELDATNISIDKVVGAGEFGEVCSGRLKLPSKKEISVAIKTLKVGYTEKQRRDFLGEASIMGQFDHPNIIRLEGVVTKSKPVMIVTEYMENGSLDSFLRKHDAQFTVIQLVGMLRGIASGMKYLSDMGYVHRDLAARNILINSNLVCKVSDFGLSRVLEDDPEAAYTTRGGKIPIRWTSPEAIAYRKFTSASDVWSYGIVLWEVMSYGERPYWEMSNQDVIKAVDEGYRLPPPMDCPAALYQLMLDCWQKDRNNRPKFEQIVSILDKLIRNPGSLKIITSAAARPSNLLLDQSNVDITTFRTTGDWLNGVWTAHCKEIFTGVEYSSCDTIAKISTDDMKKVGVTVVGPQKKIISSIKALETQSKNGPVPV", "sequence of UniProt P30559 (whole entry, looked up)": "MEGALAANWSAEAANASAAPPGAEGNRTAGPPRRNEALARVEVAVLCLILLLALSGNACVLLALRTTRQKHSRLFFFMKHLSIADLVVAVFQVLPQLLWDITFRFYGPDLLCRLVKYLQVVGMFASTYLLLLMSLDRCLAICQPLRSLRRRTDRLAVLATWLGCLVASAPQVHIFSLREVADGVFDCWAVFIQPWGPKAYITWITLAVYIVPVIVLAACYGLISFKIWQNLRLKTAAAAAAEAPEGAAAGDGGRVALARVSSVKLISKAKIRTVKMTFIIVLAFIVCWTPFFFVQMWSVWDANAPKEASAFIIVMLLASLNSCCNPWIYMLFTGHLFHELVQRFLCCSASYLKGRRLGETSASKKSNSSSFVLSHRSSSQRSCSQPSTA", "sequence of UniProt Q96SB4 (whole entry, looked up)": "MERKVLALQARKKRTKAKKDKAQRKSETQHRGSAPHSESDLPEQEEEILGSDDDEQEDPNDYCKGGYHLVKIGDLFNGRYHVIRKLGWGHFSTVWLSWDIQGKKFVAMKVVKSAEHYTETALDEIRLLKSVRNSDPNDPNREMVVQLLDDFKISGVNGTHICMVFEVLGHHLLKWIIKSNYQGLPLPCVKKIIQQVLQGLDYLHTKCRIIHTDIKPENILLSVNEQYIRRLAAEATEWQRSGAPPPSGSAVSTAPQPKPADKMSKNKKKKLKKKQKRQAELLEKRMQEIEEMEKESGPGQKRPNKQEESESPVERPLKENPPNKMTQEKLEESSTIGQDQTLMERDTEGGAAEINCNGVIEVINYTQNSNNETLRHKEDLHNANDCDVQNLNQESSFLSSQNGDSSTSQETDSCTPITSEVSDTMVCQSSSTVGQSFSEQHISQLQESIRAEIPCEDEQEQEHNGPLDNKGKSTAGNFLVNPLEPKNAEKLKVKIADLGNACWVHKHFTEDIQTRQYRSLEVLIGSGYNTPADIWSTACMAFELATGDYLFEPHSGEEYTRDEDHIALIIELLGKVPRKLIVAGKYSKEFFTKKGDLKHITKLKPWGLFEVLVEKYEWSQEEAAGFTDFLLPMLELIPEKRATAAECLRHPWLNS", "sequence of UniProt Q5U3Y7 (whole entry, looked up)": "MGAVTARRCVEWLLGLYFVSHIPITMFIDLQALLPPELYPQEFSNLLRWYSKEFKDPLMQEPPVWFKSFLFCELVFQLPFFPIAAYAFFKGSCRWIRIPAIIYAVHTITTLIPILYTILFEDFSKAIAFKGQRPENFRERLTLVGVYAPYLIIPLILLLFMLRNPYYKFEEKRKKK"}
{"Compound": "CNC(=O)C1CCN(c2ccccc2NC(=O)c2ccc(-c3cc(O)ccc3C)c(C)n2)CC1", "target": "Ephrin type-A receptor 3 (EPHA3, Homo sapiens, UniProt P29320)", "test": "cell-free assay, TR-FRET", "Ki [nM]": 2.1}
{"Compound": "CC1(C)NC(N)=Nc2nc3c(Cl)cc(Cl)cc3n21", "target": "Bifunctional dihydrofolate reductase-thymidylate synthase", "test": "enzyme activity, competitive inhibitor", "conditions": "with: dihydrofolate 60 µM, NADPH 100 µM", "Ki [nM]": 160}
{"Compound": "CC(=O)N[C@@H](Cc1ccc(O)cc1)C(=O)N[C@@H](CCCNC(=N)NC(=O)NCCCCN)C(=O)N[C@@H](CC(C)C)C(=O)N[C@@H](CCCNC(=N)N)C(=O)N[C@@H](Cc1ccc(O)cc1)C(N)=O", "target": "Neuropeptide Y receptor type 4 (NPY4R, Homo sapiens, UniProt P50391)", "test": "ligand displacement, radioligand", "Ki [nM]": 19.5}
{"Compound": "CC[C@H](C)[C@@H]1NC(=O)[C@H](Cc2ccc(O)cc2)NC(=O)[C@@H](N)Cc2cn(nn2)CCCC[C@@H](C(=O)N2CCC[C@H]2C(=O)N[C@@H](CC(C)C)C(=O)NCC(N)=O)NC(=O)[C@H](CC(N)=O)NC(=O)[C@H](CCC(N)=O)NC1=O", "target": "Oxytocin receptor (OXTR, Homo sapiens, UniProt P30559)", "test": "ligand displacement, radioligand", "conditions": "cell membranes", "Ki [nM]": 680}
{"Compound": "COc1c(OCCOCCOCCOCCOCCOCCOCCOCCOc2cccc(C(=O)C3CCN(CCc4ccc(F)cc4)CC3)c2OC)cccc1C(=O)C1CCN(CCc2ccc(F)cc2)CC1", "target": "5-hydroxytryptamine receptor 2B (HTR2B, Homo sapiens, UniProt P41595)", "test": "ligand displacement, radioligand", "Ki [nM]": 238}
{"Compound": "CCC(=O)c1ccc2c(c1)sc(=O)n2CCCN1CCCCCC1", "target": "Sigma intracellular receptor 2 (Tmem97, Rattus norvegicus, UniProt Q5U3Y7)", "test": "ligand displacement, radioligand", "Ki [nM]": 305}
{"Compound": "Cc1cc2nc3n(c2cc1C)C(C)(C)NC(N)=N3", "target": "Bifunctional dihydrofolate reductase-thymidylate synthase", "test": "enzyme activity, competitive inhibitor", "conditions": "with: dihydrofolate 60 µM, NADPH 100 µM", "Ki [nM]": 2450}
{"Compound": "CC(C)C[C@@H](NC(=O)[C@H]1CCCN1C(=O)[C@H]1CCCN1C(=O)[C@@H](CCCNC(=N)N)NC(=O)[C@@H](CCCNC(=N)N)NC(=O)[C@@H](CCCNC(=N)N)NC(=O)[C@@H](CCC(N)=O)NC(=O)[C@@H](CCCNC(=N)N)NC(=O)[C@@H](CCCNC(=N)N)NC(=O)[C@@H](CCCCN)NC(=O)[C@@H](CCCCN)NC(=O)[C@@H](CCCNC(=N)N)NC(=O)CNC(=O)[C@H](N)Cc1ccc(O)cc1)C(=O)N[C@H](CCCNC(=N)N)C(=O)N[C@H](CCCCN)C(=O)N[C@H](CCCCN)C(=O)N[C@H](CCCCN)C(=O)N[C@H](CCCCN)C(=O)N[C@H](CCCCN)C(=O)N[C@H](Cc1c[nH]cn1)C(N)=O", "target": "cAMP-dependent protein kinase catalytic subunit alpha (PRKACA, Homo sapiens, UniProt P17612)", "Ki [nM]": "12000 ± 3300"}
{"Compound": "C[C@H](NC(=O)[C@H](CCCNC(=N)N)NC(=O)[C@H](CCC(=O)O)NC(=O)[C@H](CCCNC(=N)N)NC(=O)[C@H](CCCNC(=N)N)NC(=O)[C@@H](NC(=O)[C@H](CCCNC(=N)N)NC(=O)[C@H](C)NC(=O)[C@H](CCCNC(=N)N)NC(=O)[C@H](CCC(=O)O)NC(=O)[C@@H](N)CCCNC(=N)N)[C@@H](C)O)C(=O)N[C@@H](CCCNC(=N)N)C(=O)N[C@H](C(=O)N[C@@H](CCCNC(=N)N)C(=O)N[C@@H](CCC(=O)O)C(=O)N[C@@H](CCCNC(=N)N)C(=O)N[C@@H](C)C(=O)N[C@@H](CCCNC(=N)N)C(=O)N[C@H](C(=O)N[C@@H](CCCNC(=N)N)C(=O)O)[C@@H](C)O)[C@@H](C)O", "target": "SRSF protein kinase 1 (SRPK1, Homo sapiens, UniProt Q96SB4)", "test": "enzyme activity, inhibitor, radiometric", "Ki [nM]": 2120}
{"note": "A few entries again:"}
{"Compound": "C[C@H](NC(=O)[C@H](CCCNC(=N)N)NC(=O)[C@H](CCC(=O)O)NC(=O)[C@H](CCCNC(=N)N)NC(=O)[C@H](CCCNC(=N)N)NC(=O)[C@@H](NC(=O)[C@H](CCCNC(=N)N)NC(=O)[C@H](C)NC(=O)[C@H](CCCNC(=N)N)NC(=O)[C@H](CCC(=O)O)NC(=O)[C@@H](N)CCCNC(=N)N)[C@@H](C)O)C(=O)N[C@@H](CCCNC(=N)N)C(=O)N[C@H](C(=O)N[C@@H](CCCNC(=N)N)C(=O)N[C@@H](CCC(=O)O)C(=O)N[C@@H](CCCNC(=N)N)C(=O)N[C@@H](C)C(=O)N[C@@H](CCCNC(=N)N)C(=O)N[C@H](C(=O)N[C@@H](CCCNC(=N)N)C(=O)O)[C@@H](C)O)[C@@H](C)O", "target": "SRSF protein kinase 1 (SRPK1, Homo sapiens, UniProt Q96SB4)", "test": "enzyme activity, inhibitor, radiometric", "Ki [nM]": 2120}
